# Experimental data of several laboratories.
# A part holds a random share of what one study measured. Changes are numbered by the printed parent chain.

# Block 1
# Target: ABI1, truncated, D143A, DHFR fusion (Arabidopsis thaliana)
# Method: DHFR PCA, deep sequencing
# Matrix: yeast
# Setting: methotrexate growth selection, single substitutions
# Together with: (+)-ABA 0.0091 µM
# Reference: wild-type fitted maximum
# Direction: higher = stronger binding
# Starting sequence: PYL1, truncated, DHFR fusion (Arabidopsis thaliana); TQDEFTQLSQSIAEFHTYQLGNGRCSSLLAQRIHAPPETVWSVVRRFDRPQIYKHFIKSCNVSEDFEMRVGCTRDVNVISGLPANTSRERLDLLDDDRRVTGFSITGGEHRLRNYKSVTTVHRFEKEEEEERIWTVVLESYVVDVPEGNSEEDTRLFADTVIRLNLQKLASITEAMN; partner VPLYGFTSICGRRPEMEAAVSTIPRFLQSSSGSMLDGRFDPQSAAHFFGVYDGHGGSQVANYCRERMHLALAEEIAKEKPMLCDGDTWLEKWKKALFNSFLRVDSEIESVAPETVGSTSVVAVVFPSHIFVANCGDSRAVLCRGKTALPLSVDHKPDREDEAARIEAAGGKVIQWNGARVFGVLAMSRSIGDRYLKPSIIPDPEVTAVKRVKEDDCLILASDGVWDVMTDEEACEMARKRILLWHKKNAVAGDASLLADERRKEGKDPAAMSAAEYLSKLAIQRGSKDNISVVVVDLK
Change,relative binding score [%]
N177R,15.8
S42N,29.8
L166S,-2.8
E109L,-5.62

# Block 2
# Target: CCNB2, cyclin fold, Cln2 fusion (human)
# Method: yeast growth competition, sequencing
# Matrix: yeast
# Setting: weak parent motif
# Reference: not given
# Direction: higher = stronger binding
# Starting sequence: E2F1 docking peptide (human); PPVKRRLDLETDH; partner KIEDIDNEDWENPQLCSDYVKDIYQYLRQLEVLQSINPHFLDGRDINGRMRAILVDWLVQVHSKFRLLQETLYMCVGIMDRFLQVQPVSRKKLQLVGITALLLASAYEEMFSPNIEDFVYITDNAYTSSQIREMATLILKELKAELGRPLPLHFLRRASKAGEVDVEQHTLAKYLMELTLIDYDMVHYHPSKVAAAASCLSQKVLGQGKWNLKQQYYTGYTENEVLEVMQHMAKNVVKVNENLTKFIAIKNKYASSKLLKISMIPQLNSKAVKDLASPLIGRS
Change,normalised enrichment score
PPVKRRLDLETFH [D12F],0.943
MPVKRRLDLETDH [P1M],0.494
PPVKRRLDLETDL [H13L],0.686
PPVKRRLDLENDH [T11N],0.141
PPVKWRLDLETDH [R5W],0.192
PPVKRGLDLETDH [R6G],-0.0322

# Block 3
# Target: Histone acetyltransferase KAT6A, winged helix 2, GST fusion (KAT6A, Homo sapiens, UniProt Q92794, residues 85-181)
# Method: protein binding microarray
# Form: double-stranded DNA, one strand shown
# Matrix: in vitro
# Tested at: not given
# Setting: 8-mer, flanks averaged, mean of 2 arrays, mostly near background
# Reference: not given
# Direction: higher = stronger binding
# Residues (chain): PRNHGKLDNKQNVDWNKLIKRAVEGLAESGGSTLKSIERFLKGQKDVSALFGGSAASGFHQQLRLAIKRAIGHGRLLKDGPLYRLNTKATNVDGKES
Sequence,E-score
GATGCATA,0.0304
CCGTTCCG,0.0985
TATGTCCA,-0.109
GACCCGAC,0.195
ACTGCTAT,-0.0718

# Further values, each from its own experiment
Molecule,target,test,test system,conditions,how to read,endpoint,value
"PhoQ, residues 284 288 289 292 302 303 SCCLKL","PhoP, residues 12 14 15 18 19 IQSYL (Escherichia coli, UniProt P23836)","Sort-seq, item: YFP reporter",E. coli,"PhoQ-PhoP variant library, together with: 10 µM Mg2+","reference: high Mg2+ state, higher = stronger signaling",fold induction,11.2
